Assay results collected from several papers.
Every numbered part comes from another study and shows a few of its results, in no order. Changes are numbered by the printed parent chain.

Sample 1
Target: Histone acetyltransferase KAT6A, winged helix 1, GST fusion (KAT6A, Homo sapiens, UniProt Q92794, residues 1-85)
Technique: protein binding microarray
Molecule type: double-stranded DNA, one strand shown
Medium: in vitro
Concentration: not given
Setting: 8-mer, flanks averaged, mean of 2 arrays, mostly near background
Relative to: not given
Direction: higher = stronger binding
Residues (chain): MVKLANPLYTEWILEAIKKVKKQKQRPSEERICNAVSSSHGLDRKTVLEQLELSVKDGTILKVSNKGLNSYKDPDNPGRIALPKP
With `TACTATAA` the E-score was -0.0651.
With `ACACCAGC` the E-score was -0.0684.
With `TATTCCAA` the E-score was -0.272.
`TGCCAGCA` gave an E-score of -0.199.
For `ACGAGTAA`, the E-score was -0.0098.
The E-score of `ATCGACAG` is reported as -0.0796.
`CTCCTGGA` gave an E-score of -0.2.
With `CGTCGCTC` the E-score was 0.307.

Sample 2
Target: PABPC1L2, full length, GST fusion (mouse, UniProt A0ABA7IW68)
Technique: RNAcompete
Molecule type: RNA
Medium: in vitro
Concentration: 20 nM
Setting: 7-mer, probes averaged, single round
Relative to: mean of 7-mers
Direction: higher = stronger binding
Construct (chain): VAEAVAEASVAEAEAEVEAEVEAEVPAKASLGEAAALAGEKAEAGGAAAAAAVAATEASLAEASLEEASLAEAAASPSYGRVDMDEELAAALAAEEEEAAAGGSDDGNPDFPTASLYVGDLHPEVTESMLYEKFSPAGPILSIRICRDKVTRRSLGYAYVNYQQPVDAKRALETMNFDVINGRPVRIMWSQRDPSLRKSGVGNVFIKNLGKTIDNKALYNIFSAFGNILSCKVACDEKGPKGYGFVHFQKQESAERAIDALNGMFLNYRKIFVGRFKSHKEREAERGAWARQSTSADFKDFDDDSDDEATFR
The 7-mer Z-score of `CUAUUGG` is reported as -0.159.
`UGGUGGU` gave a 7-mer Z-score of -0.219.
`GCGCUUC` gave a 7-mer Z-score of -0.226.
For `UGCGUCC`, the 7-mer Z-score was -0.345.
`CGGAUGA` has a 7-mer Z-score of 0.0478.
`CCGGCCA` has a 7-mer Z-score of -0.367.
`GACUAUU` has a 7-mer Z-score of -0.191.
`CUGGCAA` has a 7-mer Z-score of 0.122.

Sample 3
Target: Interferon regulatory factor 7, full length, phosphomimetic (IRF7, Homo sapiens, UniProt Q92985, residues 1-503, S471D/S472D/S475D/S476D/S477D/S483D/S484D/S487D)
Sequence of UniProt Q92985 (whole entry, unmodified, looked up): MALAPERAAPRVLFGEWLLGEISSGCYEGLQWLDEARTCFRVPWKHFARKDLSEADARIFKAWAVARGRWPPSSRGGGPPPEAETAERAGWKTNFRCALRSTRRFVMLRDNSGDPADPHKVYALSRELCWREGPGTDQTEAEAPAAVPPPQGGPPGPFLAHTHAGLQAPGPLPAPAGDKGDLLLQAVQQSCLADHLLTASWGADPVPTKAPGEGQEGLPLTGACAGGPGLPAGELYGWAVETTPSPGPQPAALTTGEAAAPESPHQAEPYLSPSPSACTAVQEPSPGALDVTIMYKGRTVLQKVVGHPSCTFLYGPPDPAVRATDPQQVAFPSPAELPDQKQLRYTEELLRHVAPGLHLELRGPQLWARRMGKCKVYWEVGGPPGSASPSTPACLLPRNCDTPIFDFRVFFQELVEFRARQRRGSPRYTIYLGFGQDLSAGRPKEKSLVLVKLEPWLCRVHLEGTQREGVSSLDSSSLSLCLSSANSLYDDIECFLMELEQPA
Technique: protein-binding microarray
Molecule type: double-stranded DNA, one strand shown
Medium: in vitro
Concentration: 2200 nM top
Setting: 60-bp whole probe
Together with: salmon DNA 0.4 mg/ml
Relative to: random background probes
Direction: higher = stronger binding
Constant ends, left off below: GCCTAGCAC … GTCTTGATTCGCTTGACGCTGCTG
Under “fitted relative affinity”, `GACGATTTCAGTTTCCAGACGTGCTAG` is recorded as 3.69 z-score.
`TCACCTTTATGTCCTGTACTGTGCTAG`: “fitted relative affinity” 2.12 z-score.
Under “fitted relative affinity”, `GACGGTATCGGTTTCGGGGCGTGCTAG` is recorded as 3.35 z-score.
For `TCAAGTTTCACTGCTGCACTGTGCTAG`, “fitted relative affinity” read 1.89 z-score.
`CACGGACTGGGGTATCGGGACGTGCTA` — result for “fitted relative affinity”: -0.889 z-score.
Under “fitted relative affinity”, `GACGGACTGATACTGCTGACGTGCTAG` is recorded as -0.0281 z-score.
Under “fitted relative affinity”, `TTGGGTTCCGGTTTCGGTTAGTGCTAG` is recorded as 8.14 z-score.
`AGATTTTTTTTCCTAATTGAGTGCTAG`: “fitted relative affinity” 0.546 z-score.

Further values, each from its own experiment
Starting sequence: viral docking peptide; KKAKRRLFTISDS; partner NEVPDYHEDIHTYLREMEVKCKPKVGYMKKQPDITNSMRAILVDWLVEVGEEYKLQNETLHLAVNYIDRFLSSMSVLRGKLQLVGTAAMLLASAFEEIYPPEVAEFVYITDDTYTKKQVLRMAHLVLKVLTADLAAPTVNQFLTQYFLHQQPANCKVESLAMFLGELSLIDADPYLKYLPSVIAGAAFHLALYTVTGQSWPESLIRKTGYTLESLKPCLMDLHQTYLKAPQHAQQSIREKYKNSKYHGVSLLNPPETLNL
`R5A L7A` — result for “normalised enrichment score”: 0.871 (CCNA2, cyclin fold, Cln2 fusion (human); yeast growth competition, sequencing; yeast; strong parent motif; relative to: not given, higher = stronger binding).

Excerpt of the above (sample 1):
`TGCCAGCA` gave an E-score of -0.199.
For `ACGAGTAA`, the E-score was -0.0098.
The E-score of `ATCGACAG` is reported as -0.0796.
`CTCCTGGA` gave an E-score of -0.2.
